Measurements gathered from unrelated publications.
Several values in a cell are separate wells, animals, samples, runs or records. Numbers after ± are the reported error.

C[C@H]1O[C@@H](O[C@H]2CC[C@@]3(C)[C@@H](CC[C@]4(C)[C@@H]3C=C[C@]35OC[C@@]6(CCC(C)(C)C[C@H]63)[C@@H](O)C[C@]54C)[C@]2(C)CO)[C@H](O)[C@@H](O[C@@H]2O[C@H](CO)[C@@H](O)[C@H](O)[C@H]2O)[C@H]1O  triglyceride level (pair-fed control mice, no ethanol, plasma; oral, 15 mg/kg/day): 0.757 mM and 0.694 mM and 0.779 mM and 0.722 mM and 0.675 mM and 0.748 mM
C=CCn1c(=O)c2cnc(Nc3ccc(N4CCN(C)CC4)cc3)nc2n1-c1ccc2c(n1)[C@@](O)(CC)CC2  tumour volume difference (MIA PaCa-2, BALB/c nude mice, xenograft; oral, 80 mg/kg once daily, day 28; relative to: vehicle): 733 ± 40 mm3
Cn1cc(-c2ccc(-c3cncc(Cl)c3N3CCC4(CCNC4=O)CC3)cc2)cn1  fold change in expression (COLO 205; microarray, refers to: WWTR1; concentration not given, 6 h, gene set TAZ; relative to: untreated cells): -2.94
COc1cc(Nc2ncc3c(n2)-c2ccc(Cl)cc2C(c2c(F)cccc2OC)=NC3)ccc1C(=O)O  median response score (mouse, NB-SD neuroblastoma xenograft; 2.6 mg/kg; direction not given): 1
COc1cc(O)c(CC=C(C)C)c(O)c1C(=O)/C=C/c1ccc(O)cc1  fasting plasma insulin (male Tac:SW conventional mice, high-fat diet; in diet, 60 mg/kg/day, 10 weeks): 0.88 ng/mL
COc1ccccc1[C@H](Cn1c(=O)n(C(C)(C)C(=O)O)c(=O)c2c(C)c(-c3ncco3)sc21)OC1CCOCC1  fractional hepatic DNL ([1-13C]acetate infusion, isotopomer analysis; overweight or obese healthy men, plasma VLDL-TG palmitate; oral, 200 mg single dose, 7 h post-dose, together with: oral fructose): 5.09 % new palmitate
O=C1CC[C@H](N2Cc3c(OCc4ccc(CN5CCOCC5)cc4)cccc3C2=O)C(=O)N1  exchange rate constant (deuterium-hydrogen exchange; aqueous phosphate buffer; pH 7.4, 37 °C): -0.02 h⁻¹
COc1ncnn2ccc(-c3cnc4nc(C)n(Cc5nnc([C@@H](C)F)o5)c4c3)c12  best overall response PD (relapsed or refractory AML, MDS; dose not given, splicing factor mutation-positive): 0%
O=P(O)(O)C(Cl)(Cl)P(=O)(O)O  GFAP-positive area (astrogliosis, immunostaining; Mus musculus, subarachnoid haemorrhage model, hippocampal fissure; dose not given, day 1; relative to: total area): 4.11%
CC(=O)Nc1ccc(O)cc1  gene expression (RNA-seq pathway analysis, refers to: drug degradation pathway genes; liver spheroids; top non-cytotoxic, 10 d): decreased
N#Cc1ccn2c(-c3ccncc3)c(-c3ccc(F)cc3)nc2c1  log2 fold change (kinase binding, competitor, MIB/MS competition, refers to: IRE1; Candida albicans cell lysate; 10 µM; relative to: DMSO): -0.655
Cc1c(C)n(Cc2cccc(OC(C)(C)C(=O)O)c2)c2ccc(C(=O)N[C@@H](C)c3ccc(C(C)(C)C)cc3)cc12  bone volume (C57BL/6 mouse, diet-induced obesity, proximal tibia; dose not given): 0.598 ± 0.088 mm3
CSCCNc1nc(SCCC(F)(F)F)nc2c1ncn2[C@@H]1O[C@H](COP(=O)(O)OP(=O)(O)C(Cl)(Cl)P(=O)(O)O)[C@@H](O)[C@H]1O  patients with IPA above 80% (platelet aggregation, light transmission aggregometry; human patients, platelet-rich plasma; dose not given, 3 h, together with: TRAP 15 µM): 0%
N#Cc1ccc2c(c1)[C@H]1CCCN(C(=O)c3ccc4[nH]cnc4c3)[C@H]1C2  change from baseline (refers to: FPG; human; 240 mg once daily, day 28, adjusted mean, together with: metformin; relative to: placebo): 1.6 mg/dL
Cc1n[nH]c2ccc(-c3cc(OC[C@@H](N)Cc4ccccc4)cnc3-c3ccoc3)cc12  log2 fold change (kinase binding, competitor, MIB/MS competition, refers to: RIO2; Candida albicans cell lysate; 10 µM; relative to: DMSO): -1.23
C[C@H]1C[C@H]2CSC(N)=N[C@@]2(c2nc(NC(=O)c3ccc(OC(F)F)cn3)cs2)CO1  percent change from baseline (refers to: Aβx-40; healthy adults, plasma; 540 mg single dose, 8 h post-dose; relative to: placebo): -68.3%
CC1(C)CCC(CN2CCN(c3ccc(C(=O)NS(=O)(=O)c4ccc(NCC5CCOCC5)c([N+](=O)[O-])c4)c(Oc4cnc5[nH]ccc5c4)c3)CC2)=C(c2ccc(Cl)cc2)C1  EC50 (cell killing; canine blood CD3+ T cells, dog 30; 24 h): 0.011 µM
O=C(O)CNC(=O)Cc1ccccc1  sarcomere length (ventricular cardiomyocytes, C57BL/6 mouse; dose not given, 0.488 s): 1.65 µm
O=C(OC(C(F)(F)F)C(F)(F)F)N1CCN(Cc2cccc(Oc3ccccc3)c2)CC1  tracer distribution volume (PET; rhesus monkey, pons; intravenous, 0.3 mg/kg, pretreatment blocking, together with: [18F]T-401): 0.808 mL/cm3

Some of these lines once more:
C[C@H]1O[C@@H](O[C@H]2CC[C@@]3(C)[C@@H](CC[C@]4(C)[C@@H]3C=C[C@]35OC[C@@]6(CCC(C)(C)C[C@H]63)[C@@H](O)C[C@]54C)[C@]2(C)CO)[C@H](O)[C@@H](O[C@@H]2O[C@H](CO)[C@@H](O)[C@H](O)[C@H]2O)[C@H]1O  triglyceride level (pair-fed control mice, no ethanol, plasma; oral, 15 mg/kg/day): 0.757 mM and 0.694 mM and 0.779 mM and 0.722 mM and 0.675 mM and 0.748 mM
C=CCn1c(=O)c2cnc(Nc3ccc(N4CCN(C)CC4)cc3)nc2n1-c1ccc2c(n1)[C@@](O)(CC)CC2  tumour volume difference (MIA PaCa-2, BALB/c nude mice, xenograft; oral, 80 mg/kg once daily, day 28; relative to: vehicle): 733 ± 40 mm3
